Measurements gathered from unrelated publications.
Compare with care: the assays were run in different laboratories. “And” joins repeats or separate records; there may be more than shown. Numbers after ± are the reported error. In brackets after ≈: the same amount, converted by molar mass.
Chain of UniProt Q9HBY8 (whole entry, looked up): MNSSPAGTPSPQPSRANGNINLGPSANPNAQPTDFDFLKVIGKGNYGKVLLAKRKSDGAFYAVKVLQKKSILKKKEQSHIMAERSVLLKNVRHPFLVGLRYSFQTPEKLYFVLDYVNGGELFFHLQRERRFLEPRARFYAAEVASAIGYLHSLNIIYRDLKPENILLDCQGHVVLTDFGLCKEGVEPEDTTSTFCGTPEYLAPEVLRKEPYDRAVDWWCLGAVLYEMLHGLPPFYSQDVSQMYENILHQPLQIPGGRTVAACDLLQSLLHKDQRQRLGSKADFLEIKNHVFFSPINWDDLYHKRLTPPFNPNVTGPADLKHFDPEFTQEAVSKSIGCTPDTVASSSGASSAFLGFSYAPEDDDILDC

| Compound | tested on | test | test system | conditions | scale | measurement | value |
| --- | --- | --- | --- | --- | --- | --- | --- |
| O=C(O)c1ccc(O)cc1 | Streptomyces coelicolor | RT-PCR | – | 2 mM, 1 h | – | pcaH mRNA level | increased |
| CC[C@H](C)[C@H](NC(=O)[C@H](Cc1ccc(O)cc1)NC(=O)[C@H](CCC(=O)O)NC(=O)CNC(=O)[C@H](CCC(=O)O)NC(=O)[C@H](CCCCN)NC(=O)[C@H](CCCCN)NC(=O)[C@H](CC(=O)O)NC(=O)[C@H](Cc1c[nH]cn1)NC(=O)[C@H](Cc1c[nH]cn1)NC(=O)[C@H](Cc1c[nH]cn1)NC(=O)[C@H](Cc1c[nH]cn1)NC(=O)[C@H](Cc1c[nH]cn1)NC(=O)[C@H](Cc1c[nH]cn1)NC(=O)[C@H](Cc1c[nH]cn1)NC(=O)[C@H](Cc1c[nH]cn1)NC(=O)[C@H](Cc1c[nH]cn1)NC(=O)[C@@H](N)Cc1c[nH]cn1)C(=O)N[C@@H](CCCCN)C(=O)N[C@@H](CC(C)C)C(=O)N[C@@H](CCCCN)C(=O)N[C@H](C(=O)N[C@H](C(=O)NCC(=O)N[C@@H](CCC(N)=O)C(=O)N[C@@H](CC(=O)O)C(=O)N[C@@H](CO)C(=O)N[C@@H](CO)C(=O)N[C@@H](CCC(=O)O)C(=O)N[C@H](C(=O)N[C@@H](Cc1c[nH]cn1)C(=O)N[C@@H](Cc1ccccc1)C(=O)N[C@@H](CCCCN)C(=O)N[C@H](C(=O)N[C@@H](CCCCN)C(=O)N[C@@H](CCSC)C(=O)N[C@H](C(=O)N[C@H](C(=O)N[C@@H](Cc1c[nH]cn1)C(=O)N[C@@H](CC(C)C)C(=O)N[C@@H](CCCCN)C(=O)N[C@@H](CCCCN)C(=O)N[C@@H](CC(C)C)C(=O)N[C@@H](CCCCN)C(=O)N[C@@H](CCC(=O)O)C(=O)N[C@@H](CO)C(=O)N[C@@H](Cc1ccc(O)cc1)C(=O)N[C@@H](CS)C(=O)N[C@@H](CCC(N)=O)C(=O)N[C@@H](CCCNC(=N)N)C(=O)N[C@@H](CCC(N)=O)C(=O)O)[C@@H](C)O)[C@@H](C)O)C(C)C)[C@@H](C)CC)[C@@H](C)CC)C(C)C | Drosophila melanogaster | immunoblot | head | 120 µM, 15 days old | – | tyrosine hydroxylase level | increased |
| Nc1nc(-c2ccccc2)nc2[nH]nc(Nc3c(F)cccc3F)c12 | coxsackievirus B3 | viral cytopathic effect | HeLa | – | – | IC50 | 6650 nM |
| Nc1ncc(-c2cc(-c3cnn(CC(F)(F)F)c3)ncc2F)nc1C(=O)NC1CNCC(F)C1 (centres unmarked) | PLK3 | KINOMEscan | – | 1 µM | relative to: DMSO control | remaining binding | 65% |
| CCN(CC)CC(=O)Nc1cccc(-n2cc(-c3ccc4ccc(-c5cn(-c6cccc(NC(=O)CN(CC)CC)c6)nn5)cc4c3)nn2)c1 | RCC4 | PCR angiogenesis array, measured: ANGPTL4 | – | 5 x IC50, 6 h, normoxia | relative to: untreated | fold regulation | -6.62 |
| Cc1cccc(Nc2n[nH]c3nc(-c4ccc(F)cc4F)nc(N)c23)c1 | coxsackievirus B3 | viral cytopathic effect | HeLa | – | – | IC50 | 8430 nM |
| CNS(=O)(=O)Nc1nccc(Cc2c(C)c3ccc(Oc4ncccc4F)cc3oc2=O)c1F | SU-DHL-2 | cell viability | – | 7 days | – | IC50 | > 1000 nM |
| CC(C)C[C@H](NC(=O)[C@@H](CCCCNC(=O)[C@@H](Cc1ccccc1)NC(=O)CCCCCNC(=O)CN1CCN(CC(=O)O)CCN(CC(=O)O)CCN(CC(=O)O)CC1)NC(=O)[C@H](Cc1ccc(O)cc1)NC(=O)[C@H](CO)NC(=O)[C@H](Cc1c[nH]c2ccccc12)NC(=O)[C@H](Cc1c[nH]cn1)NC(=O)[C@@H]1CCC(=O)N1)C(=O)N[C@@H](CCCNC(=N)N)C(=O)N1CCC[C@H]1C(=O)NCC(N)=O [indium-111 labelled] | – | – | female athymic nude mice, stomach | intravenous, 0.037 MBq, 4 h | – | tissue uptake | 0.3 ± 0.28 %ID/g |
| Cc1ncsc1-c1ccc(CNC(=O)[C@@H]2C[C@H](O)CN2C(=O)[C@@H](NC(=O)CN2CCN(C3CN(CCNC(=O)C[C@@H]4N=C(c5ccc(Cl)cc5)c5c(sc(C)c5C)-n5c(C)nnc54)C3)CC2)C(C)(C)C)cc1 | Spodoptera frugiperda | degrader, targeted LC-MS, measured: BRD3 | Sf9 | 0.01 µM | – | protein level | 130% and 159% and 150% and 167% |
| Cc1ncsc1-c1ccc(C(C)NC(=O)C2CC(O)CN2C(=O)C(NC(=O)CCCCCCCCCCN2CCCC(Nc3ncc(Cl)c(Nc4ccccc4S(=O)(=O)C(C)C)n3)C2)C(C)(C)C)cc1 (centres unmarked) | 22Rv1 | RNA-seq, measured: ZIC5 mRNA | – | concentration not given | relative to: DMSO | log2 fold change | -2.87 |
| C=CC(=O)Nc1cccc(Cn2ncc3cnc(Nc4cnn(CCOC)c4)nc32)c1 | PDGFRB human | binding, KINOMEscan | – | 100 nM | lower = stronger binding | percent of control | 17% |
| COc1cc(O)c(-c2cc(-c3cc(-c4c(O)cc(OC)c5c4C[C@@H](C)N[C@@H]5C)c4cc(C)cc(OC)c4c3O)c(O)c3c(OC)cc(C)cc23)c2c1[C@@H](C)N[C@H](C)C2 | Plasmodium falciparum | asexual parasite proliferation, SYBR Green I fluorescence | HB3 | – | – | IC50 | 181 ± 7.6 nM |
| CC(C)(C)NCC(SS(=O)(=O)O)c1ccccc1 (centres unmarked) | Schistosoma mansoni | perfusion day 52 | infected Swiss Webster mice | 600 mg/kg single dose, 1248 h, dosed day 7 post-infection | – | spleen weight | 0.74 g |
| CC1=CC(OC=C2C(=O)OC3c4ccccc4CC23)OC1=O (racemic) | Striga hermonthica | – | – | – | – | maximum germination | 98% |
| Cc1cccc(Nc2n[nH]c3nc(-c4ccccc4)nc(N)c23)c1 | coxsackievirus B3 | viral cytopathic effect | HeLa | – | – | IC50 | 60 nM |
| COc1ccccc1-c1n[nH]c2nc(N[C@H]3CC[C@H](NS(=O)(=O)CC(C)C)CC3)ncc12 | Leishmania donovani | parasite growth | THP-1 | intracellular, amastigote | – | EC50 | 14.3 nM |
| CN(C)c1ccc(C(c2c[nH]c(=O)[nH]c2=O)c2c[nH]c(=O)[nH]c2=O)cc1 | Human immunodeficiency virus 1 | viral replication, inhibitor, ELISA | – | 1 µg/mL | – | inhibition | 7% |
| Nc1nc(-c2ccccc2)nc2[nH]nc(Nc3cccnc3)c12 | coxsackievirus B3 | viral cytopathic effect | HeLa | – | – | IC50 | 2600 nM |
| CN(C)CCCSC(=S)N1CCN(C(=O)/C=C/c2coc3ccccc3c2=O)CC1 | PVY | virus inactivation | – | 500 µg/mL | – | inhibition | 71% and 75% |

| Compound | tested on | test | test system | conditions | scale | measurement | value |
| --- | --- | --- | --- | --- | --- | --- | --- |
| O=c1[nH]cc(C(c2ccccc2Cl)c2c[nH]c(=O)[nH]c2=O)c(=O)[nH]1 | Human immunodeficiency virus 1 | viral replication, inhibitor, ELISA | – | 1 µg/mL | – | inhibition | 20% |
| Nc1nc(-c2ccccc2)nc2[nH]nc(Nc3ccccc3C(F)(F)F)c12 | rhinovirus B42 | viral cytopathic effect | HeLa | – | – | IC50 | 1700 nM |
| O=C1NC2(CC2)COc2ncc(F)cc2[C@H]2COCCN2c2ccn3ncc1c3n2 | Salmonella typhimurium | Ames test | TA100 | 1500 µg/plate, 48 h, with: rat liver S9 | – | revertant colonies | 72 ± 14 revertants/plate |
| Cc1nn(-c2cccc(N)c2)c(=O)c2cnc(Nc3ccc(N4CCNCC4)cc3)nc12 | Serine/threonine-protein kinase Sgk2 (SGK2, Homo sapiens, UniProt Q9HBY8) | kinase activity, inhibitor, SelectScreen kinase profiling | – | – | – | IC50 | 1580 nM |
| COC1C=COC2(C)Oc3c(C)c(O)c4c(c3C2=O)C2=NC3(CCN(CC(C)C)CC3)NC2=C(NC(=O)C(C)=CC=CC(C)C(O)C(C)C(O)C(C)C(OC(=O)Nc2cccnn2)C1C)C4=O (centres unmarked) | Mycobacteroides abscessus | bacterial growth | subsp. massiliense 095 clinical isolate | mixed morphotype | – | IC90 | 166 nM |
| C#CCNc1c2c([nH]c(=O)c1C(=O)OCC)CCC2 | Human immunodeficiency virus 1 | viral replication, inhibitor | IIIB | 72 h | – | EC50 | > 100000 nM |
| CN1CCCNC(=O)c2cccc(c2)C(=O)NCCCN(C)CCCNc2cccc3c2C(=O)c2cccc(c2C3=O)NCCC1 | SAS | RNA-seq, measured: MT-ND6 mRNA | – | 1 µM, 6 h | relative to: untreated cells | log2 fold change | -1.96 |
| CC(C)C[C@H](NC(=O)[C@H](Cc1ccc(O)cc1)NC(=O)[C@@H](CCCNC(=N)N)NC(=O)[C@@H](CO)NC(=O)[C@H](Cc1ccccc1)NC(=O)[C@H](CC1CCCCC1)NC(=O)[C@H](CC(=O)O)NC(=O)CN1CCN(CC(=O)O)CCN(CC(=O)O)CCN(CC(=O)O)CC1)C(=O)N[C@@H](Cc1c[nH]c2ccccc12)C(=O)N[C@@H](CO)C(=O)O [copper-64 labelled] | – | – | human, gall bladder | concentration not given, 24 h | – | activity concentration | 654 Bq/mL and 3650 Bq/mL and 4070 Bq/mL |
| C=C(NC(=O)c1csc(-c2nc3c(cc2O)-c2nc(cs2)C(=O)NC(C(C)O)C(=O)NC(=C(C)OC)c2nc(cs2)C(=O)NC2c4nc(cs4)C(=O)NC(COC(=O)c4c5c6c(cccc6n4O)COC(=O)C(OC4CC(C)(O)C(N(C)C)C(C)O4)C2OC5)c2nc-3cs2)n1)C(N)=O (centres unmarked) | Staphylococcus aureus | – | MRSA, 10 isolates | serum 25% | – | MIC50 | 0.0156 µg/mL (≈ 0.0109 µM) |
| CN(C)c1ccc(Nc2n[nH]c3nc(-c4ccccc4)nc(N)c23)cc1 | rhinovirus B42 | viral cytopathic effect | HeLa | – | – | IC50 | 30 nM |
| COC1CN([C@H]2CC[C@H]([C@@]3(C)Oc4c(Cl)cc(C(=O)NCc5c(SC)cc(C)[nH]c5=O)c(C)c4O3)CC2)C1 | – | RNA-seq, measured: SPTBN4 mouse homolog | mouse, HT-1376 xenograft, whole blood | dose not given | relative to: vehicle | log2 fold change | 2.84 |
| COc1cccc2c(-c3ccc(O)c4c3C[C@@H](C)N[C@@H]4C)c(C)cc(O)c12 | Plasmodium falciparum | asexual parasite proliferation, SYBR Green I fluorescence | HB3 | – | – | IC50 | 16.3 ± 3 nM |
| N#Cc1ccc(C(c2c[nH]c(=O)[nH]c2=O)c2c[nH]c(=O)[nH]c2=O)cc1 | Human immunodeficiency virus 1 | viral replication, inhibitor, ELISA | – | 1 µg/mL | – | inhibition | 12% |
| COc1cc(O)ccc1CCC(c1ccc(O)cc1)c1cc2c(c(C)c1O)OC(c1ccc(O)cc1)CC2 (mixture of isomers) | – | – | human blood | 30 µM, with: A23187 | – | 5-HEPE level | 6 ± 4 pg/mL |
| Nc1nc(-c2ccccc2)nc2[nH]nc(Nc3c(F)cc(F)cc3F)c12 | coxsackievirus B3 | viral cytopathic effect | HeLa | – | – | IC50 | 11700 nM |
| COc1cc(O)c(-c2cc(-c3cc(-c4c(O)cc5c(c4OC)[C@H](C)N[C@H](C)C5)c4cc(C)cc(OC)c4c3O)c(O)c3c(OC)cc(C)cc23)c2c1[C@H](C)N[C@H](C)C2 | Plasmodium falciparum | asexual parasite proliferation, SYBR Green I fluorescence | HB3 | – | – | IC50 | 177 ± 6.2 nM |
| Nc1nc(-c2ccc(F)cc2F)nc2[nH]nc(Nc3ccc(F)cc3)c12 | coxsackievirus B3 | viral cytopathic effect | HeLa | – | – | IC50 | 20900 nM |
| CC(CO)C(=O)OCC(C)C(=O)OCCc1ccc(O)cc1 (centres unmarked) | Zika virus | viral replication, CCK-8 | Vero C1008 | 10 µM, 96 h | – | inhibition | 0% |
| Cc1cc(C(=O)Nc2nc3cccc(C)c3n2[C@H]2CCCCN(C(=O)/C=C/CN(C)C)C2)ccn1 | Trypanosoma brucei brucei | – | Lister 427 | 16.67 µM, 48 h, kill kinetics | – | proliferation | 1.65% and 2.84% and 2.09% and 0.758% and 0.789% and 0.379% |

Repeated from above:
| Compound | tested on | test | test system | conditions | scale | measurement | value |
| --- | --- | --- | --- | --- | --- | --- | --- |
| CN(C)c1ccc(Nc2n[nH]c3nc(-c4ccccc4)nc(N)c23)cc1 | rhinovirus B42 | viral cytopathic effect | HeLa | – | – | IC50 | 30 nM |
| COC1CN([C@H]2CC[C@H]([C@@]3(C)Oc4c(Cl)cc(C(=O)NCc5c(SC)cc(C)[nH]c5=O)c(C)c4O3)CC2)C1 | – | RNA-seq, measured: SPTBN4 mouse homolog | mouse, HT-1376 xenograft, whole blood | dose not given | relative to: vehicle | log2 fold change | 2.84 |
| COc1cccc2c(-c3ccc(O)c4c3C[C@@H](C)N[C@@H]4C)c(C)cc(O)c12 | Plasmodium falciparum | asexual parasite proliferation, SYBR Green I fluorescence | HB3 | – | – | IC50 | 16.3 ± 3 nM |
| N#Cc1ccc(C(c2c[nH]c(=O)[nH]c2=O)c2c[nH]c(=O)[nH]c2=O)cc1 | Human immunodeficiency virus 1 | viral replication, inhibitor, ELISA | – | 1 µg/mL | – | inhibition | 12% |
| COc1cc(O)ccc1CCC(c1ccc(O)cc1)c1cc2c(c(C)c1O)OC(c1ccc(O)cc1)CC2 (mixture of isomers) | – | – | human blood | 30 µM, with: A23187 | – | 5-HEPE level | 6 ± 4 pg/mL |
